Assay results of several laboratories.
Protocols differ between the studies behind these lines. “And” joins repeats or separate records; there may be more than shown. ± marks the error that the study gave.

| Compound | cell line | assay | conditions | scale | measurement | result |
| --- | --- | --- | --- | --- | --- | --- |
| COc1cnc2cccc(N3CCc4c(cc(Cn5ccnc5C)cc4-c4cn(C)nc4C(F)(F)F)C3=O)c2c1 | CAMA-1 | cell growth, inhibitor | 120 h | – | EC50 | 7.13 µM |
| CC/C(=N\NC(=O)C(C)Nc1ccccc1)c1ccc(O)c(C)c1O (centres unmarked) | SK-OV-3 | Western blot, item: TAZ | 10 µM, 1 h, 3D gellan gum culture, unit not given | baseline: β-actin | protein level | 1.12 ± 0.33 |
| CCn1cc(-c2cc(Cn3ccnc3)cc3c2CCN([C@H](c2cc(OC)ccn2)C2CC2)C3=O)c(C(F)(F)F)n1 | JHH5 | cell growth | 120 h | – | EC50 | > 30 µM |
| Clc1nc(NCc2ccco2)c2[nH]cnc2n1 | iPSC-derived cardiomyocytes | RNA-seq, item: ATG13 chr11 exon ending 46664095 | unit not given | baseline: DMSO minus compound | ΔPSI | 0.25 |
| CCOc1cc(-c2nncn2C)ccc1Nc1ncc2cc(C)nc(N3CC(C)(C#N)C3)c2n1 | CAL-51 | cell growth | 72 h | – | GI50 | 0.28 µM |
| Cn1cc(-c2ccc(-c3cncc(Cl)c3N3CCC4(CCNC4=O)CC3)cc2)cn1 | COLO 205 | gene expression, microarray, item: OPTN mRNA | concentration not given, 6 h | baseline: untreated cells | log2 fold change | 3.98 |
| Cc1cc(C2CCCCC2)n(O)c(=O)c1.NCCO | BT-16 | cell viability, MTT | 10 µM, 72 h | – | inhibition | 87% |
| CC(C)NCC(O)c1ccc(O)c(O)c1 (centres unmarked) | mouse ventricular cardiomyocytes | – | dose not given, 0.123 s | – | sarcomere length | 1.63 µm |
| Nc1ncnc2c1ncn2[C@@H]1O[C@H](CO)[C@@H](O)[C@H]1O | unstimulated human T cells | – | 100 nM, 72 h | higher = more viable cells | viability | 82.1 a.u. and 74.6 a.u. and 83.5 a.u. |
| Cl.Cl.OCCOCCN1CCN(Cc2cccc(Oc3ccccc3)c2)CC1 | BT-16 | cell viability, MTT | 10 µM, 72 h | – | inhibition | 89.7% |
| Cc1cccc(-c2[nH]c(CNc3ccccc3F)nc2-c2ccc3ncnn3c2)n1 | MM1.S pomalidomide-resistant | XTT | 3.5 µM | – | viability | 13% and 18% |
| Cc1nn(-c2nc3c(F)cc(F)cc3s2)c(O)c1C(c1ccc(C(F)(F)F)cc1)c1c(C)nn(-c2nc3c(F)cc(F)cc3s2)c1O | RAW-ISG | western blot | 5 µM, with: HT-DNA | baseline: DMSO | phospho-IRF3 to IRF3 ratio | 0.512 and 0.959 and 0.708 |
| Cc1c(O)cccc1C(=O)N[C@@H](CSc1ccccc1)[C@H](O)CN1C[C@H]2CCCC[C@H]2C[C@H]1C(=O)NC(C)(C)C | ΔE-expressing cells | ΔE mislocalization, high-content imaging | – | – | maximal efficacy | 120% |
| COc1ccc(-n2nc(C(C)=O)s/c2=N\N=C(/C)c2ccc(NC(=O)c3ccc(Cl)cc3)cc2)cc1 | HepG2 | – | 1.25 µM | – | toxicity | 94.3% |
| C=CC1=C(C)c2cc3[n-]c(cc4nc(cc5[n-]c(cc1n2)c(C)c5C=C)C(C)=C4CCC(=O)O)c(CCC(=O)O)c3C.[Zn+2] | SH-SY5Y | RNA-seq, item: FLNC mRNA | 5 µM, 5 h | baseline: untreated cells | fold change | 1.82 |
| COc1ccc([C@H]2N(c3ccc(Cl)c(Cl)c3)C(=O)[C@@H]3CCCN32)c(OC)c1OC (racemic) | PC-12 cells expressing mutant huntingtin | carbachol-stimulated IP3R Ca2+ release | 50 µM, 2 days, with: 1 mM carbachol | baseline: mutant huntingtin alone | Ca2+ release | decreased |
| CCc1cnc(N2CCC(c3nc(COc4ccc(-n5cnnn5)cc4)cs3)CC2)nc1 | HEK-293T | RNA-seq GSEA, item: HALLMARK_UNFOLDED_PROTEIN_RESPONSE | concentration not given | direction not given | normalized enrichment score | 2.04 |
| COC(=O)[C@]12CCC(C)(C)C[C@H]1[C@H]1C(=O)C=C3[C@@]4(C)C=C(C#N)C(=O)C(C)(C)[C@@H]4CC[C@@]3(C)[C@]1(C)CC2 | BT-16 | cell viability, MTT | 10 µM, 72 h | – | inhibition | 91.6% |
| Cn1cc(Nc2nccc(-c3ccc4c(c3)CN(C3COC3)CC[C@H]4NC(=O)c3cn(C(C)(C)C)nn3)n2)cn1 | mouse splenic B cells | item: apelin Adipocyte signalling pathway | 30 mg/kg, IgD-activated in vivo | baseline: vehicle, direction not given | pathway activation z-score | 0.832 |
| COc1cc2ncnc(Nc3ccc(Oc4ccccc4)c(C)c3C)c2cc1OC | MeWo (NF1 mutant) | resazurin | 0.1 µM, 72 h, with: trametinib | baseline: DMSO | viability | 90% |

Some of these lines once more:
| Compound | cell line | assay | conditions | scale | measurement | result |
| --- | --- | --- | --- | --- | --- | --- |
| Cc1nn(-c2nc3c(F)cc(F)cc3s2)c(O)c1C(c1ccc(C(F)(F)F)cc1)c1c(C)nn(-c2nc3c(F)cc(F)cc3s2)c1O | RAW-ISG | western blot | 5 µM, with: HT-DNA | baseline: DMSO | phospho-IRF3 to IRF3 ratio | 0.512 and 0.959 and 0.708 |
| COc1ccc([C@H]2N(c3ccc(Cl)c(Cl)c3)C(=O)[C@@H]3CCCN32)c(OC)c1OC (racemic) | PC-12 cells expressing mutant huntingtin | carbachol-stimulated IP3R Ca2+ release | 50 µM, 2 days, with: 1 mM carbachol | baseline: mutant huntingtin alone | Ca2+ release | decreased |
| Cc1c(O)cccc1C(=O)N[C@@H](CSc1ccccc1)[C@H](O)CN1C[C@H]2CCCC[C@H]2C[C@H]1C(=O)NC(C)(C)C | ΔE-expressing cells | ΔE mislocalization, high-content imaging | – | – | maximal efficacy | 120% |
